# Published values from different studies.
# Lines come from different studies, so protocols differ. “And” joins repeats or separate records; there may be more than shown. Numbers after ± are the reported error.
# TDP1: Tyrosyl-DNA phosphodiesterase 1 (TDP1, Homo sapiens, UniProt Q9NUW8)
# Sequence of UniProt Q9NUW8 (whole entry, looked up): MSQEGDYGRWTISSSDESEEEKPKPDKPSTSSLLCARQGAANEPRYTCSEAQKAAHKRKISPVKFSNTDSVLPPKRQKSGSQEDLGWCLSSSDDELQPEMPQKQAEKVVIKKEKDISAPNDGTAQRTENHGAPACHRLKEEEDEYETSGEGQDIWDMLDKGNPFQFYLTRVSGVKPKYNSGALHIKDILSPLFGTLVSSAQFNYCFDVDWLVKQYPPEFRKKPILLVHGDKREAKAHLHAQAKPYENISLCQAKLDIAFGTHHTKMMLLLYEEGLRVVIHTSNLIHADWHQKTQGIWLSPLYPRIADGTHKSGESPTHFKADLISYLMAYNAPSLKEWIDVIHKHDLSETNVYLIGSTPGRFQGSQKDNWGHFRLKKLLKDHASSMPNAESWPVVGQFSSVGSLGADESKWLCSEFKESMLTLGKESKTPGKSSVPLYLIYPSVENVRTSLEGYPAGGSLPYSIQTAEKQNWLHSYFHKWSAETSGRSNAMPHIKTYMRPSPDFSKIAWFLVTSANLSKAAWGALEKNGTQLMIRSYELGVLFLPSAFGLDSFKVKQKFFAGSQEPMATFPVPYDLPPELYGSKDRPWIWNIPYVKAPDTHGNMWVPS
SMILES,target or system,test,conditions,how to read,endpoint,result
Cn1ncc2cc(-c3cncc(Cl)c3N3CCC4(CCNC4=O)CC3)ccc21,LS174T,"gene expression, microarray, refers to: NCOA5 mRNA","concentration not given, 24 h",baseline: untreated cells,log2 fold change,-2.12
O=C(C[Se]C(=O)c1ccccc1Nc1ccccc1)Nc1cccc(C(F)(F)F)c1,NCI60 melanoma subpanel,"cell growth, inhibitor",five-dose,,GI50,1610 nM
NC(=O)c1ccc(-c2ccccc2Cl)c2c3c([nH]c12)CC[C@H](N)C3,DOHH-2,cell growth or viability,,,IC50,23.2 nM
COc1ccc2c(c1)C(n1nnc3ccccc31)C1=C(CCCC1=O)O2 (centres unmarked),3T3-L1 preadipocytes,"adipogenesis, Oil Red O staining","IC20, 14 days, single replicate",,lipid content,0.816 OD492 and 0.761 OD492 and 0.741 OD492
O=C(Nc1nnc2c1c(-c1ccc(Cl)cc1)nc1sc(=Cc3ccco3)c(=O)n12)c1ccccc1 (mixture of isomers),HCC 2998,SRB,"10 µM, NCI60 single-dose screen, colon cancer",baseline: untreated,cell growth,54.1%
CNS(=O)(=O)Nc1nccc(Cc2c(C)c3ccc(Oc4ncccc4F)cc3oc2=O)c1F,Hs 683,cell viability,7 days,,IC50,> 1000 nM
COc1cc(N(C)CCN(C)C)c(NC(=O)/C=C/c2ccc(F)cc2)cc1Nc1nccc(-c2cn(C)c3ccccc23)n1,NCI-H1975,"cell growth or viability, MTT","0.5 µM, 72 h",,inhibition,62.9%
CCCCCCc1cccc(C(O)CC(CO)NC(=O)CCCCCCCCCCNC(C)=O)c1 (centres unmarked),HeLa,"CERT activity, HPLC-MS/MS lipidomics, refers to: lactosylceramide 24:1","1 µM, 24 h, not cell-number normalised",,lactosylceramide level,5710 pmol/sample and 7280 pmol/sample and 4120 pmol/sample
CN(C)C(=O)c1ccnc(N2Cc3cn(Cc4cc(Cl)cc(Cl)c4)nc3C2)n1,HEK293 expressing GluA1 and GluA2,"glutamate excitotoxic cell death, CellTox Green",added: glutamate,,IC50,68 nM
CN(C)c1ccc(-n2cc(COC(=O)[C@]3(C)C=C(C(=O)OC(C)(C)C)C(=O)CC3)nn2)cc1,HeLa,quantitative western blot,"concentration not given, 7 (unit not given), added: EGF",,pRSK/tubulin ratio,0.166
CCN(CC)CC(=O)Nc1cccc(-n2cc(-c3ccc4ccc(-c5cn(-c6cccc(NC(=O)CN(CC)CC)c6)nn5)cc4c3)nn2)c1,RCC4,"PCR angiogenesis array, refers to: TIMP2","5 x IC50, 2 h, normoxia",baseline: untreated,fold regulation,-1.05 fold
CC(C)c1ccc(N(C)c2ccc3c(c2)OCC[C@H]3CNc2cnccc2C(=O)O)cc1,NCI-H1930,"cell growth or viability, ATP luminescence",7 days,,IC50,20 nM
O=C(C[Se]C(=O)c1ccc2ccccc2c1)Nc1cccc(C(F)(F)F)c1,NCI60 leukaemia subpanel,NCI60 five-dose screen,,,GI50,1720 nM
Cc1ccc(C(=O)/C=C/c2ccccc2)s1,NSCLC panel (nine cell lines),,10 µM,,mean growth inhibition,3.8%
COC(=O)C1=C(C)Oc2ccc(Br)cc2C1C(C(C)=O)C(=O)OC (centres unmarked),3T3-L1 preadipocytes,"adipogenesis, Oil Red O staining","IC20, 14 days",,mean lipid content,0.71 OD492
CCc1n(CC(=O)O[C@@H]2C[C@H](C)CC[C@H]2C(C)C)c2ccccc2[n+]1C,HTS cells (mouse),"gene microarray, refers to: TRIB3","1 µM, 24 h, unit not given",baseline: untreated,mRNA level,10
O=C(C[Se]C(=O)c1cc2ccccc2o1)Nc1cccc(C(F)(F)F)c1,NCI60 leukaemia subpanel,NCI60 five-dose screen,,,mean TGI,4710 nM
COC(=O)c1ccc(/C=C/C(=O)Nc2cc(Nc3nccc(-c4cn(C)c5ccccc45)n3)c(OC)cc2N(C)CCN(C)C)cc1,NCI-H1975,"cell growth or viability, MTT","0.5 µM, 72 h",,inhibition,58%
CO[C@@H]1[C@@H](OC(N)=O)[C@@H](O)[C@H](Oc2ccc3c(O)c(NC(=O)c4ccc(O)c(CC=C(C)C)c4)c(=O)oc3c2C)OC1(C)C,HCT-116 BRCA2 wild-type,,"150 µM, mean of replicates A, B",baseline: untreated,colony survival,86.9%
O=C(O)c1ccc(Nc2c(-c3ccc(CON=Cc4cccc(N5CCOCC5)c4)cc3)nc3cc(-c4ccccc4)ccn23)cc1,TDP1,"enzyme activity, inhibitor","100 µM, unpurified compound",,inhibition,47.9%
COc1ccccc1-c1ccncc1C(=O)Nc1ccc(OCc2ccc(Cl)cc2)nn1,DLD-1 parental (BRCA2 WT),,"5 µM, average of 3 runs",baseline: untreated,colony survival,101%
O=C(C[Se]C(=O)c1ccc2ccccc2n1)Nc1cccc(C(F)(F)F)c1,NCI60 CNS subpanel,NCI60 five-dose screen,,,mean TGI,3450 nM
COc1cc(N(C)CCN(C)C)c(NC(=O)/C=C/c2ccc(C)cc2)cc1Nc1nccc(-c2cn(C)c3ccccc23)n1,NCI-H1975,"cell growth or viability, MTT","0.5 µM, 72 h",,inhibition,65.3%
COC(=O)c1cc(NC2=NC(=O)C(=Cc3ccc(C)cc3)S2)ccc1OC(C)=O,MCF7,"GC-MS, refers to: 1,3-propanediol",1 µM,baseline: DMSO,metabolite level,-0.01 fold change
COc1ccc2c(c1)c(CC(=O)[Se]CC(=O)Nc1cccc(C(F)(F)F)c1)c(C)n2C(=O)c1ccc(Cl)cc1,NCI60 melanoma subpanel,cell growth,"10 µM, 48 h, one-dose",,mean growth percent,-87%
CCNc1cc2c(cc1C)C1(c3cc(C)c(NCC)cc3O2)c2ccccc2C(=O)N1N=Cc1c[c-]c(-c2ccccn2)cc1.Cc1c(C)c(-c2ccc(-c3ccccc3)cc2)[c-](C)c1C.[Cl-].[Ir+3],A549,annexin V/PI flow cytometry,"3.0×IC50, 24 h",,late apoptotic cells,85.72 ± 0.54%
COCCCCCNc1nc(NCCCCCCN(C)C)c2cc(NC(=O)/C=C/CN(C)C)ccc2n1,MCF7,CellTiter-Glo,"0.7812 µM, 48 h, unit not given",baseline: DMSO-treated cells,viability,1.12 and 1.17 and 1.11
Cc1ncsc1-c1ccc(C(C)NC(=O)C2CC(O)CN2C(=O)C(NC(=O)CCCCCCCCCCN2CCCC(Nc3ncc(Cl)c(Nc4ccccc4S(=O)(=O)C(C)C)n3)C2)C(C)(C)C)cc1 (centres unmarked),22Rv1,"RNA-seq, refers to: SLX4 mRNA",concentration not given,baseline: DMSO,log2 fold change,-2
COc1ccccc1-c1ccncc1C(=O)Nc1nnc(OCc2ccc(Cl)cc2)s1,DLD-1 BRCA2 knock-out,immunofluorescence,"10 µM, 96 h",,γH2AX foci-positive nuclei,57.9%
CC(=O)Oc1ccccc1C(=O)[Se]CC(=O)Nc1cccc(C(F)(F)F)c1,NCI60 leukaemia subpanel,NCI60 five-dose screen,,,mean TGI,48500 nM
O=[C]=[Mn-2]12(=[C]=O)(=[C]=O)[O]c3cc4c(cc3=[N+]1CCc1ccccc1)[O][Mn-2](=[C]=O)(=[C]=O)(=[C]=O)([N+]=4CCc1ccccc1)[n+]1ccc(cc1)C(=O)Nc1ccccc1NC(=O)c1cc[n+]2cc1,HCT-15,MTT,"50 µM, 48 h, photolysed compound",,viability reduction,65%
CN1CCCNC(=O)c2cccc(c2)C(=O)NCCCN(C)CCCNc2cccc3c2C(=O)c2cccc(c2C3=O)NCCC1,SAS,"RNA-Seq, refers to: SPACA9 mRNA","1 µM, 6 h",baseline: untreated cells,log2 fold change,1.77
CC(C)Cc1ccc(C(C)C(=O)[Se]CC(=O)Nc2cccc(C(F)(F)F)c2)cc1 (centres unmarked),NCI60 leukaemia subpanel,NCI60 five-dose screen,,,mean TGI,4440 nM
C=CS(=O)(=O)c1ccc(OC)c(-c2c[nH]c3ncc(-c4cncc(C(=O)N(C)C)c4)cc23)c1,Ba/F3 BCR-ABL wild type,cell proliferation,72 h,,GI50,> 1000 nM
O=C(c1cccc(N2Cc3cn(Cc4ccc(F)cc4)nc3C2)c1)N1CCNCC1,HEK293 expressing GluA1 and GluA2,"glutamate excitotoxic cell death, CellTox Green",added: glutamate,,IC50,15 nM
CCN(C(=O)c1cc(F)ccc1Oc1nncnc1N1CCC2(C1)CN([C@H](CCCN(C)CCOC)C(C)C)C2)C(C)C,MV4-11,cell growth or viability,72 h,,GI50,17.5 nM
COc1cc(N2CCCC2)ccc1C=NOCc1ccc(-c2nc3cc(-c4ccccc4)ccn3c2Nc2ccc(C(=O)O)cc2)cc1,TDP1,"enzyme activity, inhibitor",100 µM,,inhibition,87.2%
COc1ccc(NC(=O)c2ccc3[nH]c(-c4ccc(N(C)C)cc4)nc3c2)cn1,HCEC-hTERT,IncuCyte,"concentration not given, 16 h",,dead cell to confluence ratio,8.16 and 3.18 and 87.9
COc1cc(N(C)CCN(C)C)c(NC(=O)/C=C/c2cccc(C(F)(F)F)c2)cc1Nc1nccc(-c2cn(C)c3ccccc23)n1,NCI-H1975,"cell growth or viability, MTT","0.5 µM, 72 h",,inhibition,69.8%
CCOC(=O)c1ccc(-n2c(N)c(C#N)c(SC)c(C#N)c2=O)cc1,HepG2,"cell growth or viability, MTT","50 µM, 24 h",,viability,42.7%
COc1ccc2cc(/C=C/C(=O)Nc3cc(Nc4nccc(-c5cn(C)c6ccccc56)n4)c(OC)cc3N(C)CCN(C)C)ccc2c1,NCI-H1975,"cell growth or viability, MTT","0.5 µM, 72 h",,inhibition,66.3%
O=C(N1CCCC1)n1cc(-c2ccc(-c3ccccc3)cc2)nn1,mouse T cells,"N-terminal labelling proteomics, refers to: PAIP2 N-terminal peptides","0.001 µM, 6 h",baseline: DMSO,SILAC ratio,1.06
O=C(C[Se]C(=O)c1cc2ccccc2s1)Nc1cccc(C(F)(F)F)c1,NCI60 CNS subpanel,NCI60 five-dose screen,,,mean TGI,3270 nM
C=CC(=O)Nc1cc(Nc2nccc(-c3c(-c4ccc(Cl)cc4)n(C)c4ccccc34)n2)c(OC)cc1N(C)CCN(C)C,NCI-H1975,"cell growth or viability, MTT","0.5 µM, 72 h",,inhibition,76%

# A few entries again:
SMILES,target or system,test,conditions,how to read,endpoint,result
CN1CCCNC(=O)c2cccc(c2)C(=O)NCCCN(C)CCCNc2cccc3c2C(=O)c2cccc(c2C3=O)NCCC1,SAS,"RNA-Seq, refers to: SPACA9 mRNA","1 µM, 6 h",baseline: untreated cells,log2 fold change,1.77
CCOC(=O)c1ccc(-n2c(N)c(C#N)c(SC)c(C#N)c2=O)cc1,HepG2,"cell growth or viability, MTT","50 µM, 24 h",,viability,42.7%
